Experimental data of several laboratories.
Each line is one published result; not all experiments were run side by side. Numbers after ± are the reported error.

CNC(=O)[C@@H](c1ccccc1)N1CCc2cc(OC)c(OC)cc2[C@@H]1CCc1ccc(C(F)(F)F)cc1  CC50 (African green monkey cells; 5 days): 21.4 µM
CC(C)C[C@H](NC(=O)[C@@H](NC(=O)[C@H](CCCCN)NC(=O)[C@H](CCCCN)NC(=O)[C@@H](N)CC(C)C)C(C)C)C(=O)N[C@@H](CCCCN)C(=O)N[C@@H](C)C(=O)N[C@@H](C)C(=O)N[C@@H](C)C(=O)N[C@@H](CCCCN)C(=O)NCCCC[C@H](NC(=O)[C@H](CCCCN)NC(=O)[C@H](C)NC(=O)[C@H](C)NC(=O)[C@H](C)NC(=O)[C@H](CCCCN)NC(=O)[C@H](CC(C)C)NC(=O)[C@@H](NC(=O)[C@H](CCCCN)NC(=O)[C@H](CCCCN)NC(=O)[C@@H](N)CC(C)C)C(C)C)C(=O)NCCCC[C@H](NC(=O)[C@H](CCCCNC(=O)[C@H](CCCCN)NC(=O)[C@H](C)NC(=O)[C@H](C)NC(=O)[C@H](C)NC(=O)[C@H](CCCCN)NC(=O)[C@H](CC(C)C)NC(=O)[C@@H](NC(=O)[C@H](CCCCN)NC(=O)[C@H](CCCCN)NC(=O)[C@@H](N)CC(C)C)C(C)C)NC(=O)[C@H](CCCCN)NC(=O)[C@H](C)NC(=O)[C@H](C)NC(=O)[C@H](C)NC(=O)[C@H](CCCCN)NC(=O)[C@H](CC(C)C)NC(=O)[C@@H](NC(=O)[C@H](CCCCN)NC(=O)[C@H](CCCCN)NC(=O)[C@@H](N)CC(C)C)C(C)C)C(=O)NCCC(=O)O  concentration for 100% cell killing (RAW264.7; crystal violet; 24 h): 200 µM
COc1ccc(CCN2CCC(Nc3nc4ccccc4n3Cc3ccc(F)cc3)CC2)cc1  CC50 (African green monkey cells; 5 days): 7.5 µM
Oc1ccc(C(c2ccc(O)cc2)(C(F)(F)F)C(F)(F)F)cc1  early apoptotic cells (HepG2 spheroids, dissociated; annexin V-FITC/PI flow cytometry; 0.10 µM, 96 h): 4.71 ± 3.63%
C=CCn1c(=O)n([C@@H]2O[C@H](CO)[C@@H](O)[C@H]2O)c2nc(N)[nH]c(=O)c21  viability (HFF-1; 1000 µM, 48 h): 98.6%
CCN(CC)CCOC1(c2ccccc2)CCN(CCNc2ccccc2)CC1  CC50 (African green monkey cells; 5 days): 46.8 µM
C=C(C)[C@H]1Cc2c(ccc3c2O[C@@H]2COc4cc(OC)c(OC)cc4[C@@H]2C3=O)O1  IC50 (THLE-2 transduced with Ad-CYP1A2; metabolism-induced cytotoxicity; 48 h, 3D Matrigel spots): 0.3 ± 0.1 µM
CC(=O)N[C@@H](CCCCN)C(=O)N[C@@H](CC(C)C)C(=O)N[C@@H](CC(C)C)C(=O)N[C@@H](CCCCN)C(=O)N[C@@H](CC(C)C)C(=O)N[C@@H](CC(C)C)C(=O)N[C@@H](CCCCN)C(=O)N[C@@H](CCCCN)C(=O)N1CCC[C@H]1C(=O)N[C@@H](CC(C)C)C(=O)N[C@@H](CCCCN)C(=O)N[C@@H](CC(C)C)C(=O)N[C@@H](CC(C)C)C(N)=O  MHC10 (human red blood cells; haemolysis; 6 h, 37 °C, 5% haematocrit in PBS): > 160 µM
CNCCCC1c2ccccc2C=Cc2ccccc21  CC50 (African green monkey cells; 5 days): 26.3 µM
CCc1cccc(C)c1N(C(=O)CCl)C(C)COC (stereo not drawn)  toxic ratio (MCF7 AREc32; 24 h, nominal concentration; relative to: baseline IC10 over IC10): 0.78
CCCCCCCCCC(=O)N[C@@H](CCCCN)C(=O)N[C@@H](CCCCN)C(=O)N[C@@H](C)C(=O)N[C@@H](CC(C)C)C(=O)N[C@@H](CCCCN)C(=O)N[C@@H](CC(C)C)C(=O)N[C@@H](C)C(=O)N[C@@H](CCCCN)C(=O)N[C@@H](CCCCN)C(=O)N1CCC[C@H]1C(=O)N[C@@H](CC(C)C)C(=O)N[C@@H](CCCCN)C(=O)N[C@@H](CC(C)C)C(=O)N[C@@H](CC(C)C)C(=O)N[C@@H](CCCCN)C(N)=O  MHC10 (human red blood cells; haemolysis; 6 h, 37 °C, 5% haematocrit in PBS): > 160 µM
CC(C)C[C@H](NC(=O)CNC(=O)CNC(=O)CNC(=O)[C@H](Cc1ccc(O)cc1)NC(=O)[C@H](CC(C)C)NC(=O)[C@@H](NC(=O)CNC(=O)[C@H](Cc1ccc(O)cc1)NC(=O)[C@H](CCCCN)NC(=O)[C@H](CC(N)=O)NC(=O)[C@@H](NC(=O)[C@H](CCCCN)NC(=O)[C@H](Cc1c[nH]c2ccccc12)NC(=O)CN)[C@@H](C)O)[C@@H](C)O)C(=O)N[C@@H](CCCCN)C(=O)N[C@@H](CCCCN)C(=O)N[C@@H](CC(C)C)C(=O)N[C@@H](CC(C)C)C(=O)N[C@@H](CC(C)C)C(=O)N[C@@H](CC(C)C)C(=O)N[C@@H](CC(C)C)C(=O)N[C@@H](CCCCN)C(=O)N[C@@H](CCCCN)C(=O)N[C@@H](CC(C)C)C(=O)NCC(=O)O  lowest hemolytic concentration (human red blood cells; 1 h, 37 °C, 10% hemolysis): 128 µg/mL
CN(CC[C@H](Oc1cccc2ccccc12)c1cccs1)N=O  relative survival (TK6 expressing CYP2C19; 0.25 µM, 4 h, without S9; relative to: vehicle): 92.8%
O=c1ccc2ccccc2o1  chance response (NHEK; cell count; concentration not given, 24 h, apoptosis, necrosis, cell cycle panel): 0.02%
c1ccc(C(O[C@@H]2CCCN(CCc3ccc4c(c3)OCO4)C2)c2ccccc2)cc1  CC50 (African green monkey cells; 5 days): > 100 µM
O=S(=O)(c1ccc(O)cc1)c1ccc(O)cc1  necrotic cells (HepG2 spheroids; annexin V-FITC/PI flow cytometry; 1 µM, 96 h): 36.5 ± 7.95%
C=CC(=O)Nc1cc(Nc2nccc(-c3cn(C)c4ccccc34)n2)c(OC)cc1N(C)CCN(C)C  CC50 (African green monkey cells; 5 days): 3.09 µM
CCNCc1nc2c(N)nc3ccccc3c2n1CC(C)(C)O  viability (HFF-1; 100 µg/mL, 48 h): 25.9%

Repeated from above:
Oc1ccc(C(c2ccc(O)cc2)(C(F)(F)F)C(F)(F)F)cc1  early apoptotic cells (HepG2 spheroids, dissociated; annexin V-FITC/PI flow cytometry; 0.10 µM, 96 h): 4.71 ± 3.63%
CNCCCC1c2ccccc2C=Cc2ccccc21  CC50 (African green monkey cells; 5 days): 26.3 µM
